Results from different studies.
Parts stem from different laboratories: compare values within a part only. Changes are numbered by the printed parent chain.

Sample 1 — technique: DHFR PCA, deep sequencing; sample: yeast; added: (+)-ABA 200 µM; baseline: wild-type fitted maximum; reading: higher = stronger binding
Target: ABI1, truncated, D143A, DHFR fusion (Arabidopsis thaliana)
Setting: methotrexate growth selection, single substitutions
Parent: PYL1, truncated, DHFR fusion (Arabidopsis thaliana); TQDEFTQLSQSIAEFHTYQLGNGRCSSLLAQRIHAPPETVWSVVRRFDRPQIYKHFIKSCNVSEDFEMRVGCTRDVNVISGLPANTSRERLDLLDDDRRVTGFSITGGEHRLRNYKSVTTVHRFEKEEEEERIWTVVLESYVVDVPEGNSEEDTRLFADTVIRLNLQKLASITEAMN
| Change | relative binding score [%] |
| --- | --- |
| L169W | -6.35 |
| V70K | 96.2 |
| Q10M | 92.1 |
| L169N | -2.03 |
| L164S | 99.7 |
| E131R | 104 |
| I57D | 3.93 |
| S42T | 98.6 |
| E125I | 104 |
| V100K | 24.4 |
| D65F | 88.9 |
| S9P | 74.9 |
| H122D | 82.1 |
| N85L | 103 |
| L91D | 10.5 |

Sample 2 — target: CCNF, cyclin fold, Cln2 fusion (human); technique: yeast growth competition, sequencing; sample: yeast; setting: strong parent motif; baseline: not given; reading: higher = stronger binding
Parent: CUX1 docking peptide (human); SRIRRELFIEEIQ; partner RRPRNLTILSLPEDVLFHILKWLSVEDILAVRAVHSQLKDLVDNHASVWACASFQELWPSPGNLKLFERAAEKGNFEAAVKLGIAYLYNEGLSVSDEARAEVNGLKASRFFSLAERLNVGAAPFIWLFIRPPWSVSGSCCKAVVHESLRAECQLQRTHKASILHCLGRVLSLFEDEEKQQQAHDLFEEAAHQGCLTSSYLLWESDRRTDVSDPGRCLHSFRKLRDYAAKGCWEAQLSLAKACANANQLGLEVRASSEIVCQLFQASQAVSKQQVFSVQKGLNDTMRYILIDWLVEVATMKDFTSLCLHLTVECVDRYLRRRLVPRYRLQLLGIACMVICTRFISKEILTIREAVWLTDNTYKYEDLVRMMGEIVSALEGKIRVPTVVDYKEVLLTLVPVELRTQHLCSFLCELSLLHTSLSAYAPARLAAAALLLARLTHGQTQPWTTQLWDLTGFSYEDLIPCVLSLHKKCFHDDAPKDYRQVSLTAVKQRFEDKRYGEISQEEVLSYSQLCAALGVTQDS
| Change | normalised enrichment score |
| --- | --- |
| SRIRAELFIEEIQ [R5A] | -0.247 |
| SRIRKELFIEEIQ [R5K] | 2.29 |
| SAIRRELFIEEIQ [R2A] | 4.36 |
| SRIRRELFAEEIQ [I9A] | 6.96 |
| SRIRRELFIEEIA [Q13A] | 6.07 |
| SRIARELFIEEIQ [R4A] | 4.81 |
| SRIRRELFIAEIQ [E10A] | 5.69 |
| SRIRRELFIEAIQ [E11A] | 5.77 |
| SRIRKELLIEEIQ [R5K F8L] | 0.888 |
| SRIRAEAFIEEIQ [R5A L7A] | -0.206 |

Sample 3 — target: CEBPD, bZIP domain (human); technique: DHFR protein complementation; sample: yeast; baseline: wild-type JUN-FOS pair; reading: higher = stronger binding
Setting: single substitutions, most at no-binding floor
Parent: JUN, bZIP domain (human); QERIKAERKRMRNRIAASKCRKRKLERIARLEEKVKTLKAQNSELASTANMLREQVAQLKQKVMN; partner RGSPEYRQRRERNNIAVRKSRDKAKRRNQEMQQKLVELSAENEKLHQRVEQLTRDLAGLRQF
| Change | binding fitness [natural log] |
| --- | --- |
| L38I | -1.18 |
| E32D | -1.41 |
| N42Q | -1.33 |
| L59H | -1.4 |
| V56W | -1.46 |
| V56Q | -1.38 |
| L52D | -1.55 |
| A46S | -1.4 |
| T48W | -1.43 |
| K39I | -1.35 |
| N42T | -1.39 |
| A29R | -1.35 |
| K34N | -1.36 |
| T37F | -1.34 |
| L52I | -1.25 |
| E44P | -1.46 |
| A40H | -1.33 |
| E32R | -1.3 |
| L38G | -1.48 |
| E44Y | -1.17 |
| A57E | -1.21 |
| V35E | -1.49 |
| A49V | -1.21 |

Sample 4 — technique: RNA Bind-n-Seq; molecule type: RNA; sample: in vitro; tested at: not given; setting: RNA with constant flanks, ends assumed; baseline: input RNA pool; reading: higher = stronger binding
Target: RING finger protein unkempt homolog, zinc fingers 1-6, GST-SBP tag (UNK, Homo sapiens, UniProt Q9C0B0, residues 30-357)
Residues (chain): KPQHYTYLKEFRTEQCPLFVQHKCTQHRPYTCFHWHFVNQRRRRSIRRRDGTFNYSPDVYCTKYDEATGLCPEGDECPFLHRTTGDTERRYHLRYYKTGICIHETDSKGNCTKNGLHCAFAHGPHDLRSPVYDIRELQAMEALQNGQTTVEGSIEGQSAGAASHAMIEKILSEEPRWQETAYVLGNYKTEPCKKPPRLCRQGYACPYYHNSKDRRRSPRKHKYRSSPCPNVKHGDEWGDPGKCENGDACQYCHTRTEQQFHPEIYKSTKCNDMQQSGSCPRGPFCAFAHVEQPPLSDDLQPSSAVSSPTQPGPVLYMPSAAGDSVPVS
| Sequence | bound/input enrichment [ratio] |
| --- | --- |
| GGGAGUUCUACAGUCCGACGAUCUGCUAGCUCAAGAAGCACCAGAGGUAUAUACAGAGUAUUGGGAUCAGAUCCAGGAUCCAUAACCGUUUCUCACCUUGAAUCAAGGAUUUAUAUGAUAUUCUUCUCAGAUUUACUUUGUGUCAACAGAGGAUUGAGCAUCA | 0.123 |
| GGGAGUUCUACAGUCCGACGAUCAAACAUAACAUAUCUUUAAAGCUUUUCUAUCUUCUUUUGAAAUUUGGACCAAUAAAAUUCCCGGUGAUAUGGAGGAUUGUAUUGCUCAACUUCUCAUAGUGAGACAACACGUAACAAAACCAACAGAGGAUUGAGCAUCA | 2.75 |
| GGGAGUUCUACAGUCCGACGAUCGAAGCUAUUGGAAAGAAUAACCCUCCCCUGAAGUCCCGGAGCUUCUCGCUGGCAUCCCGUGGUAAUUCUCCCAUAUCCCAGCGGAGACCAAGUCAGAAUGCCAUGUCUUUUUUUAAUGUUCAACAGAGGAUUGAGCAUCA | 0.634 |
| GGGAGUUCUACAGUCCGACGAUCCAGAUUCACAGGGAUUUGAAAGCUGGUAAUAUUCUUCUGGGUGAGGAUGGUUCAGUACAAACCGCAGAUUUUGGGGUAAGUGCGUUCCUAGCAACAGGGGGUGAUGUUACCCGAAAUAAACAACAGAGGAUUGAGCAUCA | 0.207 |
| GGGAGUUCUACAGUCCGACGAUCGAGAGCCGCCUGUCCUGGUUAGAUGGUUCGGGAUUAGGAUUCUCACUGGAAUACCCCACCAUCCGUUUACAUGCGGUGUCCAGGGAUCCAAACGCUUACCCUCAAGAGCAUUUGUAUGUUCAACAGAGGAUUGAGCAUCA | 0.0688 |
| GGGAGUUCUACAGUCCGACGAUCAAAAGAAAUUUCCAGCUAACAUUUUUAAAUCAUGAUGUUGUCAAAAUCUCUCCAAAAUCAGUCCGAAAUAAGCUUUUGGAAAGUCAAAGUAAAAAGAAAAUUCAUGGAAAGAGGGUGACACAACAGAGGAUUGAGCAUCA | 0.42 |
| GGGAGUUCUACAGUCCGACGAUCAUGGCAACAUCAGAGGCACUUAAAAUUUCAAGAGAGGUAGAUCCAGAUGGUCGCAGAACCCCCGCUGUAAUCACUAAACUUGAUCUCAUGGAUGCGGGUACUGAUGCCAUGGAUGUAUUGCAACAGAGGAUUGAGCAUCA | 0.178 |
| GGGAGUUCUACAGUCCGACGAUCGCUGGAAAUAGGGCACAGAUCCAGACUGUGAUAGAUGCUAACAUGUUCCCAGCUCUUAUCCGUAUAUUGCAAACAGCAGAGUUCCGGACAAGGAAGGAAGCUGCUUGGGCCAUCACAAAUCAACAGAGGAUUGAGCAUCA | 0.241 |

Excerpt of the above (sample 3):
| Change | binding fitness [natural log] |
| --- | --- |
| V56Q | -1.38 |
| L52D | -1.55 |
| A46S | -1.4 |
| T48W | -1.43 |
| K39I | -1.35 |
| N42T | -1.39 |
| A29R | -1.35 |
| K34N | -1.36 |
| T37F | -1.34 |
